Results collected from several papers.
Each line is one published result; not all experiments were run side by side. ± gives the spread as reported. Converted amounts (≈) assume the structure as drawn.
PKG: cGMP-dependent protein kinase (PKG, Plasmodium falciparum, UniProt Q8I719)
OPRL1: Nociceptin receptor (OPRL1, Homo sapiens, UniProt P41146)

By UniProt entry, the sequences of proteins in these tests, tags left out. Chains listed by the source or under a name are the forms on record and can include a tag or linker. Residues count along the entry.
UniProt Q8I719, whole entry: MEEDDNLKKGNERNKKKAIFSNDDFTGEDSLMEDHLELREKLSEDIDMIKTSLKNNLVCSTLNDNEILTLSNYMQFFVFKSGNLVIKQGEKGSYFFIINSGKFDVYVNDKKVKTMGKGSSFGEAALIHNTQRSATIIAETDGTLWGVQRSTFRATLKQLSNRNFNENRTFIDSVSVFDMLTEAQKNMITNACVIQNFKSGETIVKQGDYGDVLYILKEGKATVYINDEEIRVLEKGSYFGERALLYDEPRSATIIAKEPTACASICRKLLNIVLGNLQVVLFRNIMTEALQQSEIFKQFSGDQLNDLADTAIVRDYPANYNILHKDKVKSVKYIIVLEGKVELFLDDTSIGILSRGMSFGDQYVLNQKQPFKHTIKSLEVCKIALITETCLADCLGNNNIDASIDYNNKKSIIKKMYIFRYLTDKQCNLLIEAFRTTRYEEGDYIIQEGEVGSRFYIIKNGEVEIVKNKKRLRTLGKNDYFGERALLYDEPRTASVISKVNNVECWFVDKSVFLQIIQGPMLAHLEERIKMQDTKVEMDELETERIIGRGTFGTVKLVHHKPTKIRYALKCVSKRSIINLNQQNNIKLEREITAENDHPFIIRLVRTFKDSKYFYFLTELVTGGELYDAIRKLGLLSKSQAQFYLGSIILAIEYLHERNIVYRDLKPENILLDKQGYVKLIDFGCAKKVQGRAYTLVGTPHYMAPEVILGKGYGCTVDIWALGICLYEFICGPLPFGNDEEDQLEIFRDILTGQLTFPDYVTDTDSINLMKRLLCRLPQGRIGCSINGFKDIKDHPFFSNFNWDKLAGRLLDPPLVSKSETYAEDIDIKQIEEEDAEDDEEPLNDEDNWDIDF
UniProt P41146, whole entry: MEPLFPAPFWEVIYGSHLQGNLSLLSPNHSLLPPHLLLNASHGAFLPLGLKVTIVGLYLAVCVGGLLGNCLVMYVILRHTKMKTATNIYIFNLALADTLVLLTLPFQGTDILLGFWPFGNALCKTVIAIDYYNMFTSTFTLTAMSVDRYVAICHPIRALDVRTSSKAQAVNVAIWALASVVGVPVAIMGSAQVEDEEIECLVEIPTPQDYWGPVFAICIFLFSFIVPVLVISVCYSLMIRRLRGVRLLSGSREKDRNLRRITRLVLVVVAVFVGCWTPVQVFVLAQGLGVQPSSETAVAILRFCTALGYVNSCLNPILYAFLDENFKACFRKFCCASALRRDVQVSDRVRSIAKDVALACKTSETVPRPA
UniProt P08510, 1-655 with tags or gaps DEL6-46: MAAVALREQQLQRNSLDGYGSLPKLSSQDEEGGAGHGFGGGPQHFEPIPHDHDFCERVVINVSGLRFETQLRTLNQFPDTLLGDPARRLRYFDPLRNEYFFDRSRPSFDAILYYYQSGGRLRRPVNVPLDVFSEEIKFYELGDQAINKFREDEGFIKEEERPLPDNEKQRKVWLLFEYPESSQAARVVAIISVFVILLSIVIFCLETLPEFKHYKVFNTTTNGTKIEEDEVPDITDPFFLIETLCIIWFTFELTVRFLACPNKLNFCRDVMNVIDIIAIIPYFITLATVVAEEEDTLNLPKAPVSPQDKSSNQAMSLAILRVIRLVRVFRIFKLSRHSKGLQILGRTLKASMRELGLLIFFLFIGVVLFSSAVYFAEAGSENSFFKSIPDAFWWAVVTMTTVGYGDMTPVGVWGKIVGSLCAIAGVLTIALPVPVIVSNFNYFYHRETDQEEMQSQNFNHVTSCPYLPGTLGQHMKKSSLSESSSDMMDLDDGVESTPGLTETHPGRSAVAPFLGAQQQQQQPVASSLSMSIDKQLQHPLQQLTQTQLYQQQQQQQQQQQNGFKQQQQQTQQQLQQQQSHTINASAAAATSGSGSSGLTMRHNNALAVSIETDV
UniProt P32121, whole entry partner: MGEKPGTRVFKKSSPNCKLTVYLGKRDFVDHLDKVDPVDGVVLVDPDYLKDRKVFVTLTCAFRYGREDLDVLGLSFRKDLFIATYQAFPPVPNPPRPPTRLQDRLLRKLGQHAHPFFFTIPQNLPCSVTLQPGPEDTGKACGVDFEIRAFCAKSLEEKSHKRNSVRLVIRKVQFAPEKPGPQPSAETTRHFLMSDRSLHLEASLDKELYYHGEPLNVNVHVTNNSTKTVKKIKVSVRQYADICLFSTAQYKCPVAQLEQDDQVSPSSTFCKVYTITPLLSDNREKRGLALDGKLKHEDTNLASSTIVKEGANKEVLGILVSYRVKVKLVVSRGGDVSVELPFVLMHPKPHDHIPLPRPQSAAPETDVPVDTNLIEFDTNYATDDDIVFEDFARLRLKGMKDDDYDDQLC

SMILES	target or system	test	test system	conditions	scale	measurement	value
CCN(CC)Cc1onc(-c2cccc(Cl)c2)c1-c1ccnc(N[C@@H]2CCN(C(=O)c3ccn(C)n3)C2)n1	PKG	kinase activity, inhibitor, IMAP				Ki	0.9 ± 0.5 nM
CCCC1c2ccccc2C=NN1C(=O)/C=C/c1cc(Cc2cnc(N)nc2N)cc(OC)c1OC (racemic)	Bacillus anthracis		Sterne			MIC	1 µg/mL (≈ 2.06 µM)
CNC(=O)CC1C(=O)N(C2CCN([C@H]3CC[C@@H](C(C)C)CC3)CC2)c2ccccc21 (some centres unmarked)	OPRL1	β-arrestin 2 recruitment, BRET	HEK293		baseline: compound EC50 over N/OFQ EC50	potency ratio	5
O=C(O)C(=O)CC(=O)C1(Cc2ccc(Cl)cc2)CCN(Cc2ccccc2)CC1	SFTSV	viral replication, cell-based				effective concentration	> 50 µM
CC(C)[C@H]1CC[C@@H](N2CCC3(CC2)C(=O)NCN3c2ccccc2)CC1	OPRL1	calcium mobilization	CHO		baseline: NOP over mu, delta, kappa	selectivity ratio	< 100 fold
CC[C@H](C)[C@H](NC(=O)[C@H](C)NC(=O)[C@H](CCC(=O)O)NC(=O)[C@H](CCC(=O)O)NC(=O)[C@H](CC(C)C)NC(=O)[C@H](CCCCN)NC(=O)[C@H](CCCCN)NC(=O)[C@H](CCSC)NC(=O)[C@H](CCC(=O)O)NC(=O)[C@H](Cc1ccc(O)cc1)NC(=O)[C@H](CCC(=O)O)NC(=O)[C@H](CC(C)C)NC(=O)[C@H](CC(=O)O)NC(=O)[C@H](CC(C)C)NC(=O)[C@H](Cc1ccccc1)NC(=O)[C@@H](NC(=O)[C@@H](NC(=O)[C@H](CC(N)=O)NC(=O)[C@@H](NC(=O)[C@H](CCC(N)=O)NC(=O)[C@H](CC(=O)O)NC(=O)[C@H](CC(C)C)NC(=O)[C@@H](N)CO)[C@@H](C)CC)C(C)C)[C@@H](C)O)C(=O)N[C@@H](CCCCN)C(=O)N[C@@H](CCCCN)C(=O)N[C@@H](CC(C)C)C(=O)N[C@@H](CCC(=O)O)C(=O)N[C@@H](CCC(=O)O)C(=O)N[C@@H](CO)C(=O)N[C@@H](Cc1ccc(O)cc1)C(=O)N[C@H](C(=O)N[C@@H](CC(=O)O)C(=O)N[C@@H](CC(C)C)C(=O)N[C@@H](CCCCN)C(=O)N[C@@H](CCC(=O)O)C(=O)N[C@@H](CC(C)C)C(=O)O)[C@@H](C)CC	SARS-CoV-2 Delta pseudovirus	pseudovirus infection, inhibitor, luciferase	Caco-2	24 h, dual mutations		IC50	1180 nM
O=C(NC1CCN(c2ncnc3[nH]cnc23)CC1)c1cccc(NS(=O)(=O)c2ccc(Cl)cc2)c1	SARS-CoV-2	viral infection	Wuhan-Hu-1			IC50	1370 nM
CCOP(=O)(OCC)ON1C(=O)c2cccc3cccc(c23)C1=O	carboxylesterase (rat)	enzyme activity, inhibitor	rat, postnatal day 1, rat liver homogenate	added: p-nitrophenyl valerate		IC50	5 nM
CC[C@H](C)[C@@H]1NC(=O)[C@H](CCCNC(=N)N)NC(=O)[C@@H](N)CSSC[C@@H]2NC(=O)[C@@H]3CSSC[C@@H](C(=O)N[C@H](C(=O)O)C(C)C)NC(=O)[C@H](CCCCN)NC(=O)[C@H](CC(N)=O)NC(=O)[C@H](Cc4ccccc4)NC(=O)[C@H](CCCNC(=N)N)NC(=O)[C@H](CC(N)=O)NC(=O)[C@H](CSSC[C@H](NC(=O)[C@H](CCCCN)NC(=O)[C@H](CCC(N)=O)NC(=O)[C@H](CC(N)=O)NC(=O)[C@@H]4C[C@@H](O)CN4C1=O)C(=O)N[C@@H](Cc1ccccc1)C(=O)N[C@@H](CCC(N)=O)C(=O)N[C@@H](Cc1c[nH]cn1)C(=O)N[C@@H](CC(C)C)C(=O)N[C@@H](CC(=O)O)C(=O)N[C@@H](CC(=O)O)C(=O)N3)NC(=O)[C@H](CCCCN)NC(=O)[C@H](CCCNC(=N)N)NC(=O)[C@H](CO)NC2=O	Sh (Drosophila melanogaster, UniProt P08510, del6-46)	potassium current, two-electrode voltage clamp	Xenopus oocytes	zero voltage		koff	17 ± 1 s⁻¹
Cc1ccc(S(=O)(=O)Nc2cccc(C(=O)NC3CCN(c4ncnc5[nH]cnc45)CC3)c2)cc1Cl	SARS-CoV-2		Wuhan-Hu-1	0.823 µM	baseline: untreated infected cells	relative infection	61.4%
CC[C@H](C)[C@H](NC(=O)[C@H](C)NC(=O)[C@H](CCC(=O)O)NC(=O)[C@H](CCC(=O)O)NC(=O)[C@H](CC(C)C)NC(=O)[C@H](CCCCN)NC(=O)[C@H](CCCCN)NC(=O)[C@H](CCSC)NC(=O)[C@H](CCC(=O)O)NC(=O)[C@H](Cc1ccc(O)cc1)NC(=O)[C@H](CCC(=O)O)NC(=O)[C@H](CC(C)C)NC(=O)[C@H](CC(=O)O)NC(=O)[C@H](CC(C)C)NC(=O)[C@H](Cc1ccccc1)NC(=O)[C@@H](NC(=O)[C@@H](NC(=O)[C@H](CC(N)=O)NC(=O)[C@@H](NC(=O)[C@H](CCC(N)=O)NC(=O)[C@H](CC(=O)O)NC(=O)[C@H](CC(C)C)NC(=O)[C@@H](N)CO)[C@@H](C)CC)C(C)C)[C@@H](C)O)C(=O)N[C@@H](CCCCN)C(=O)N[C@@H](CCCCN)C(=O)N[C@@H](CC(C)C)C(=O)N[C@@H](CCC(=O)O)C(=O)N[C@@H](CCC(=O)O)C(=O)N[C@H](C(=O)N[C@@H](Cc1ccc(O)cc1)C(=O)N[C@H](C(=O)N[C@@H](CC(=O)O)C(=O)N[C@@H](CC(C)C)C(=O)N[C@@H](CCCCN)C(=O)N[C@@H](CCC(=O)O)C(=O)N[C@@H](CC(C)C)C(=O)O)[C@@H](C)CC)[C@@H](C)O	SARS-CoV-2 JN.1 pseudovirus	pseudovirus infection, inhibitor, luciferase	Caco-2	24 h		IC50	247 nM
COc1ccc(S(=O)(=O)Nc2cccc(C(=O)NC3CCN(c4ncnc5[nH]cnc45)CC3)c2)cc1	SARS-CoV-2		Wuhan-Hu-1	0.2743 µM	baseline: untreated infected cells	relative infection	59.2%
CC[C@H](C)[C@H](NC(=O)[C@H](C)NC(=O)[C@H](CCC(=O)O)NC(=O)[C@H](CCC(=O)O)NC(=O)[C@H](CC(C)C)NC(=O)[C@H](CCCCN)NC(=O)[C@H](CCCCN)NC(=O)[C@H](CCSC)NC(=O)[C@H](CCC(=O)O)NC(=O)[C@H](Cc1ccc(O)cc1)NC(=O)[C@H](CCC(=O)O)NC(=O)[C@H](CC(C)C)NC(=O)[C@H](CC(=O)O)NC(=O)[C@H](CC(C)C)NC(=O)[C@H](Cc1ccccc1)NC(=O)[C@@H](NC(=O)[C@@H](NC(=O)[C@H](CC(N)=O)NC(=O)[C@@H](NC(=O)[C@H](CCC(N)=O)NC(=O)[C@H](CC(=O)O)NC(=O)[C@H](CC(C)C)NC(=O)[C@H](CO)NC(=O)[C@H](CC(C)C)NC(=O)[C@H](CC(=O)O)NC(=O)[C@@H]1CCCN1C(=O)[C@H](C)N)[C@@H](C)CC)C(C)C)[C@@H](C)O)C(=O)N[C@@H](CCCCN)C(=O)N[C@@H](CCCCN)C(=O)N[C@@H](CC(C)C)C(=O)N[C@@H](CCC(=O)O)C(=O)N[C@@H](CCC(=O)O)C(=O)N[C@@H](CO)C(=O)N[C@@H](Cc1ccc(O)cc1)C(=O)N[C@H](C(=O)N[C@@H](CC(=O)O)C(=O)N[C@@H](CC(C)C)C(=O)N[C@@H](CCCCN)C(=O)N[C@@H](CCC(=O)O)C(=O)N[C@@H](CC(C)C)C(=O)O)[C@@H](C)CC	SARS-CoV-2 Alpha pseudovirus	pseudovirus infection, inhibitor, luciferase	Caco-2	24 h		IC50	265 nM
O=C(NCc1ccc(F)cc1)C1C(=O)N(O)C(=O)c2cc(C(F)(F)F)ccc21 (centres unmarked)	Lymphocytic choriomeningitis mammarenavirus	minigenome reporter gene		50 µM	baseline: DMSO	remaining activity	61%
CS(=O)(=O)C=CCNC(=O)c1ccc2[nH]c(=O)n(C3CC3)c2c1	Chikungunya virus	viral replication, nanoluciferase reporter	181/25-nLuc-Capsid			IC50	9800 ± 200 nM
O=C(O)C(O)=CC(=O)c1ccc2cc(O)c(O)cc2c1	Lymphocytic choriomeningitis mammarenavirus	minigenome reporter gene		50 µM	baseline: DMSO	remaining activity	110%
Cc1ccccc1S(=O)(=O)Nc1cccc(C(=O)NC2CCN(c3ncnc4[nH]cnc34)CC2)c1	SARS-CoV-2		Wuhan-Hu-1	2.469 µM	baseline: untreated infected cells	relative infection	49.3%
CCCN(C)Cc1onc(-c2cccc(Cl)c2)c1-c1ccnc(N[C@@H]2CCN(C(=O)c3ccn(C)n3)C2)n1	PKG	kinase activity, ATP-competitive inhibitor, IMAP kinetics				Ki	29 ± 10 nM
CC[C@H](C)[C@H](NC(=O)[C@H](C)NC(=O)[C@H](CCC(=O)O)NC(=O)[C@H](CCC(=O)O)NC(=O)[C@H](CC(C)C)NC(=O)[C@H](CCCCN)NC(=O)[C@H](CCCCN)NC(=O)[C@H](CCSC)NC(=O)[C@H](CCC(=O)O)NC(=O)[C@H](Cc1ccc(O)cc1)NC(=O)[C@H](CCC(=O)O)NC(=O)[C@H](CC(C)C)NC(=O)[C@H](CC(=O)O)NC(=O)[C@H](CC(C)C)NC(=O)[C@H](Cc1ccccc1)NC(=O)[C@@H](NC(=O)[C@@H](NC(=O)[C@H](CC(N)=O)NC(=O)[C@@H](NC(=O)[C@H](CCC(N)=O)NC(=O)[C@H](CC(=O)O)NC(=O)[C@H](CC(C)C)NC(=O)[C@@H](N)CO)[C@@H](C)CC)C(C)C)[C@@H](C)O)C(=O)N[C@@H](CCCCN)C(=O)N[C@@H](CCCCN)C(=O)N[C@@H](CC(C)C)C(=O)N[C@@H](CCC(=O)O)C(=O)N[C@@H](CCC(=O)O)C(=O)N[C@@H](C)C(=O)N[C@@H](Cc1ccc(O)cc1)C(=O)N[C@H](C(=O)N[C@@H](CC(=O)O)C(=O)N[C@@H](CC(C)C)C(=O)N[C@@H](CCCCN)C(=O)N[C@@H](CCC(=O)O)C(=O)N[C@@H](CC(C)C)C(=O)O)[C@@H](C)CC	SARS-CoV-2 Beta pseudovirus	pseudovirus infection, inhibitor, luciferase	Caco-2	24 h		IC50	687 nM
O=C(Nc1ccc(F)cc1)C1C(=O)N(O)C(=O)c2cc([N+](=O)[O-])ccc21 (centres unmarked)	Lymphocytic choriomeningitis mammarenavirus	minigenome reporter gene		50 µM		inhibition	30%
